Results of several laboratories.
Lines come from different studies, so protocols differ. Several values in a cell are separate wells, animals, samples, runs or records. ± marks the error that the study gave.
EPHA7: Ephrin type-A receptor 7 (EPHA7, Homo sapiens, UniProt Q15375)
UniProt Q15375, sequence (whole entry, looked up): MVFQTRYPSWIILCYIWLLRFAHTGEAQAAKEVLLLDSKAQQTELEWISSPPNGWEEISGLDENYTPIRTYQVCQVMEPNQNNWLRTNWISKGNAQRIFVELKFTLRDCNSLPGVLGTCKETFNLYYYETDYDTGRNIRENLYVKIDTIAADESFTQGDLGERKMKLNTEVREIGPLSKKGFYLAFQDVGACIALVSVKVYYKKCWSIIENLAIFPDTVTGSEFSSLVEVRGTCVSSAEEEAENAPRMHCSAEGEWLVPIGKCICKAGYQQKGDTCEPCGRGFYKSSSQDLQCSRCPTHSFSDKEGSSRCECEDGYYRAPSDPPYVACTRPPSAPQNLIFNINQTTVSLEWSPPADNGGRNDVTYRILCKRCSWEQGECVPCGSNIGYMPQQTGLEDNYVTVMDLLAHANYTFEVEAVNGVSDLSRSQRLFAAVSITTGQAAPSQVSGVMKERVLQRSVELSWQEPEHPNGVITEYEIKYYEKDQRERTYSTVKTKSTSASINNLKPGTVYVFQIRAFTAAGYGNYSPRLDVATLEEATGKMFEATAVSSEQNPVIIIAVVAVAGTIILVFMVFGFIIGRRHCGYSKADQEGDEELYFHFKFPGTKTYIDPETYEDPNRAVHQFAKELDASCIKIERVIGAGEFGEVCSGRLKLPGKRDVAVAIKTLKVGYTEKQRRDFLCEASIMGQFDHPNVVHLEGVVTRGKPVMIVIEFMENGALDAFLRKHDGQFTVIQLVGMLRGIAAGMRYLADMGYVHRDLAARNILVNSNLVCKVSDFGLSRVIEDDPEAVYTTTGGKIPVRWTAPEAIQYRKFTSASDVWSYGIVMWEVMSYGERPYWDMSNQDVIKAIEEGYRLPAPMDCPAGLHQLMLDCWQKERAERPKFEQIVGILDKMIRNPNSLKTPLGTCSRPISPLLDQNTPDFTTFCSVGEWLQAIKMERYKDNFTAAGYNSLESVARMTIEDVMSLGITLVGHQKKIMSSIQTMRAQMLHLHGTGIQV
TEC: Tyrosine-protein kinase Tec (TEC, Homo sapiens, UniProt P42680)
UniProt P42680, sequence (whole entry, looked up): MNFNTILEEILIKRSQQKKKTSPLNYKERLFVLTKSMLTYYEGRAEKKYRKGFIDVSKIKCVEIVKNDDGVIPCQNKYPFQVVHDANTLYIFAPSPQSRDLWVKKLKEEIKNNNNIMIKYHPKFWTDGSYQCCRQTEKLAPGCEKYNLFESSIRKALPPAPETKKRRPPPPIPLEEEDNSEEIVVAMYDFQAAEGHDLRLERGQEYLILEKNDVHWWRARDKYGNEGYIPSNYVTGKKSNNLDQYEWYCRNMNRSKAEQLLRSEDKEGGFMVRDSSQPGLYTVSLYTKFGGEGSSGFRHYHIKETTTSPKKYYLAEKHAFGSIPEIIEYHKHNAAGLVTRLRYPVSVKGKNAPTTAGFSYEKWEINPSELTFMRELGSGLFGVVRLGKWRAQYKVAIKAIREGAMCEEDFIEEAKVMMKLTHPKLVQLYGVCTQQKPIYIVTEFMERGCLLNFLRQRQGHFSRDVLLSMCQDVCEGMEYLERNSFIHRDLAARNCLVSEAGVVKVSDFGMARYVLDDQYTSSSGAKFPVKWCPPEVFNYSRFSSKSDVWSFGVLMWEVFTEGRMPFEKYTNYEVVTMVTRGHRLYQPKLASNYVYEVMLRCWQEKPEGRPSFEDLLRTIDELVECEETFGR
STK25: Serine/threonine-protein kinase 25 (STK25, Homo sapiens, UniProt O00506)
UniProt O00506, sequence (whole entry, looked up): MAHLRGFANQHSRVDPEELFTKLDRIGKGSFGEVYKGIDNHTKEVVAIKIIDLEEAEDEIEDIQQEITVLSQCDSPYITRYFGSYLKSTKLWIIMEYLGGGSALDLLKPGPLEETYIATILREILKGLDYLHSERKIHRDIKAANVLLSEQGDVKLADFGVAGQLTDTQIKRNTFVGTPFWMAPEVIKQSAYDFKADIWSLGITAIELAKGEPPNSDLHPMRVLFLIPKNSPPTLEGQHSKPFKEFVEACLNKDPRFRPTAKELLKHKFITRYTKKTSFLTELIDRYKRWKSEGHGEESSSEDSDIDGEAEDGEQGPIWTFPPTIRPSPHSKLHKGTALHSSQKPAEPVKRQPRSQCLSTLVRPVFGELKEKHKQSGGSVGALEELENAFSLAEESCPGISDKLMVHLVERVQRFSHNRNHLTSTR
PDGFRA: Platelet-derived growth factor receptor alpha (PDGFRA, Homo sapiens, UniProt P16234)
UniProt P16234, sequence (whole entry, looked up): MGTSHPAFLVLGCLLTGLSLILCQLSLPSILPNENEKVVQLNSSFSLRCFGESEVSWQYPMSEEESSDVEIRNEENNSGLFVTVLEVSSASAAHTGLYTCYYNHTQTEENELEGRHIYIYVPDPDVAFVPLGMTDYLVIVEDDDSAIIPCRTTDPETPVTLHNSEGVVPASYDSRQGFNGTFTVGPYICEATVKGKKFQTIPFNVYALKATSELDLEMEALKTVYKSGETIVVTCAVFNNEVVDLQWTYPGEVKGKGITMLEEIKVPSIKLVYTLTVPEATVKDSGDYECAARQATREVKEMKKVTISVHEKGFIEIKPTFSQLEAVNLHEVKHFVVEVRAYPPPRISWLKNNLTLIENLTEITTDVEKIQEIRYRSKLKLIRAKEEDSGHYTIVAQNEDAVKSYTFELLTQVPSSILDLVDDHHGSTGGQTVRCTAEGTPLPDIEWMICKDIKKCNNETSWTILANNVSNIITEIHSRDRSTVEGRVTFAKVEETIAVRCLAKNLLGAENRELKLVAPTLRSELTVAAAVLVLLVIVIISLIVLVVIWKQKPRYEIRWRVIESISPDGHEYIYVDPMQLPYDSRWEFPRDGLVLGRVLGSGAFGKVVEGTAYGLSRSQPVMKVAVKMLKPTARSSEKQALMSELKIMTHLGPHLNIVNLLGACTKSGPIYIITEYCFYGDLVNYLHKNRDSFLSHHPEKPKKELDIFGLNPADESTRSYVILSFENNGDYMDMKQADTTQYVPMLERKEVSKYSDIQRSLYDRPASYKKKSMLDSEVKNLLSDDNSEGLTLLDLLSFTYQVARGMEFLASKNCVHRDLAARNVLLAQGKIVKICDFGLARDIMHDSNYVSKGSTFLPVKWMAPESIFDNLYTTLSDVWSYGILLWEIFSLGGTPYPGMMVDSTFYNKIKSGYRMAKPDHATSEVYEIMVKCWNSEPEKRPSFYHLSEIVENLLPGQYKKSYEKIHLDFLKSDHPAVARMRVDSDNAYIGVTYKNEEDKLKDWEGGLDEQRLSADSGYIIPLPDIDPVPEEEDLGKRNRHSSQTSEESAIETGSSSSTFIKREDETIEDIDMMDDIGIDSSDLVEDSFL
UniProt Q96SB4, sequence (whole entry, looked up): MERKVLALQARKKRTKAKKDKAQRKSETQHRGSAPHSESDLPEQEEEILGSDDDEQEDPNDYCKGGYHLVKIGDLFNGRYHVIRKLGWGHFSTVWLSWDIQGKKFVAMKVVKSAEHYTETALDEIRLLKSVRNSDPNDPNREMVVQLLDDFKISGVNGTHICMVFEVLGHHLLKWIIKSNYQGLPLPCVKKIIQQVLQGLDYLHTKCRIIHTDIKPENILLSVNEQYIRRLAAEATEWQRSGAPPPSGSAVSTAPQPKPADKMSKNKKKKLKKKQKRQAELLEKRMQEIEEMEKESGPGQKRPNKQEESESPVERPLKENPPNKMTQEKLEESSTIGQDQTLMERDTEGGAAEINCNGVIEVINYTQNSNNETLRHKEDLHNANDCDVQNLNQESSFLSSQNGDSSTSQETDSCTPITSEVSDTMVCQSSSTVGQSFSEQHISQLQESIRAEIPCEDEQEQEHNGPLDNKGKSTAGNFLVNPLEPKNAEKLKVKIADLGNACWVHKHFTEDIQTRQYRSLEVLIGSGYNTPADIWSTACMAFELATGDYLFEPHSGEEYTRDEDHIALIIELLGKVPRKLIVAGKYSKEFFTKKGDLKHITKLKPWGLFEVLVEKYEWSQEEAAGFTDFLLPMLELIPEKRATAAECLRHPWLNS
UniProt O75164, sequence (whole entry, looked up): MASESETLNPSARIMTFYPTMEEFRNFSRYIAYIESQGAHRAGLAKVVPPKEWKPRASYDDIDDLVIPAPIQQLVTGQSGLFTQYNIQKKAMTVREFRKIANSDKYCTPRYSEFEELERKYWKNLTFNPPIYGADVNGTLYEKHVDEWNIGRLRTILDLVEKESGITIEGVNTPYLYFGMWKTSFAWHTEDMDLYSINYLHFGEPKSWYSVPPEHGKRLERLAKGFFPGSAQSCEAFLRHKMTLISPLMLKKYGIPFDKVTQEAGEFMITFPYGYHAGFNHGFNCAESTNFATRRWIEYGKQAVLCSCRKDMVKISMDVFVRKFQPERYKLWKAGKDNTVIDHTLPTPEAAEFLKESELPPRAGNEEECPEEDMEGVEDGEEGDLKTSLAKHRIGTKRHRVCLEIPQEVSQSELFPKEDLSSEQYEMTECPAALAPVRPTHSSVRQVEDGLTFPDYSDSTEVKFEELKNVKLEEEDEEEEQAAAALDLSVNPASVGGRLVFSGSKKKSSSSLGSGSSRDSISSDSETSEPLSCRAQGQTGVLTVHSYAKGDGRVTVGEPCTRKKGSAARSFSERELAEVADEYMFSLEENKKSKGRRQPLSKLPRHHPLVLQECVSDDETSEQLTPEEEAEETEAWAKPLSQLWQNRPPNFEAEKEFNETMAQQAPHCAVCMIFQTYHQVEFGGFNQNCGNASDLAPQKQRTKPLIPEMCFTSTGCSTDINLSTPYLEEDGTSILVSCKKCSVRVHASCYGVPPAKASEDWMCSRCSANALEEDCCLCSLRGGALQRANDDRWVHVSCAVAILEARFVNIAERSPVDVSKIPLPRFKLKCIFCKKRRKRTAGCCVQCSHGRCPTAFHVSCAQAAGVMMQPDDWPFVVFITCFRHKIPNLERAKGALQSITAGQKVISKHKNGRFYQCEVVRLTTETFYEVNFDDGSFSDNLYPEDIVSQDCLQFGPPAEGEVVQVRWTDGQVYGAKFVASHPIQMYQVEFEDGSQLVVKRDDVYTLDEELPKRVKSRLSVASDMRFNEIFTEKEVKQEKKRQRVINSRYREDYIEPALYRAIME

SMILES	tested on	assay	system	conditions	how to read	measurement	result
O=S(=O)(NCC1Cc2cc(Br)ccc2O1)c1cccc(Cl)c1O (stereo not shown)	malate dehydrogenase	enzyme activity, inhibitor	–	200 µM, pH 7.0, 1% DMSO, aggregation counter-screen	–	remaining activity	102%
O=C(NC1CCC1)c1ccc2nc(-c3cccc(NS(=O)(=O)NCCN4CCCCC4)c3)cn2c1	Leucine-rich repeat serine/threonine-protein kinase 2 (LRRK2, Homo sapiens, UniProt Q5S007)	enzyme activity	–	10 µM	–	remaining activity	82%
Cc1ccc(C(=O)N(CCCN)[C@@H](c2oc3cc(Cl)ccc3c(=O)c2Cc2ccccc2)C(C)C)cc1	Toxoplasma gondii	parasite growth, luciferase reporter	HFF, tachyzoite	72 h	–	EC90	8.22 µM
CCCOc1ccc(OC)c(F)c1C(=O)c1ccc(C(=O)N[C@@H]2CNC[C@H]2NC(=O)c2ccc3[nH]ncc3c2)cc1	Hepatocyte growth factor receptor (MET, Homo sapiens, UniProt P08581, Y1230D)	enzyme activity	–	10 µM	–	remaining activity	39%
Cn1cc(-c2ccc(-c3cncc(Cl)c3N3CCC4(CCNC4=O)CC3)cc2)cn1	COLO 205	gene expression, microarray, item: MKI67 mRNA	–	concentration not given, 6 h	baseline: untreated cells	log2 fold change	-3.81
CNc1ncc2c(/C=C/C(=O)N3CCC(OC)CC3)nn(Cc3cccc(C(F)(F)F)c3)c2n1	EPHA7	kinase activity, inhibitor	–	1 µM	baseline: untreated control	remaining activity	104%
Cc1cc(Nc2cc(N3CCN(C)CC3)nc(Sc3ccc(NC(=O)C4CC4)cc3)n2)[nH]n1	EPHA7	kinase activity, KinaseProfiler	–	0.03 µM, species human	baseline: control	remaining activity	86%
Cn1ncc(S(=O)(=O)NC2(c3cc(F)cc(Br)c3)CC2)c1C(=O)O	malate dehydrogenase	enzyme activity, inhibitor	–	200 µM, pH 7.0, 1% DMSO, aggregation counter-screen	–	remaining activity	103%
C=CC(=O)N1CCC([C@@H]2CCNc3c(C(N)=O)c(-c4ccc(Oc5ccccc5)cc4)nn32)CC1	TEC	kinase activity, inhibitor, HotSpot radiometric	–	100 nM, added: ATP 10 µM	–	remaining activity	8.9 ± 0.1%
CC(CNS(=O)(=O)c1cnn(C)c1C(=O)O)c1c(Cl)cccc1Cl (stereo not shown)	malate dehydrogenase	enzyme activity, inhibitor	–	200 µM, pH 7.0, 1% DMSO, aggregation counter-screen	–	remaining activity	72%
CCCCCCNc1nc(NC2CCN(C)CC2)c2cc(OC)c(OC)cc2n1	Toxoplasma gondii	parasite growth, luciferase reporter	HFF, tachyzoite	72 h	–	EC50	2.46 µM
COc1ccc(F)cc1C(=O)NCc1ccc(-c2nn([C@@H](C)C(F)(F)F)c(N)c2C(N)=O)cc1	STK25	kinase activity, inhibitor, HotSpot radiometric	–	100 nM, added: ATP 10 µM	–	remaining activity	110%
Nc1ncc2c(n1)-c1c([nH]c3ccc(-c4ccc(F)cc4)cc13)CCC2	Testis-specific serine/threonine-protein kinase 4 (TSSK4, Homo sapiens, UniProt Q6SA08)	kinase activity, inhibitor, radiometric	–	1 µM, added: ATP at Km	–	remaining activity	56%
O=C(O)c1ccc(Nc2ncc3c(n2)-c2ccc(Cl)cc2C(c2c(F)cccc2F)=NC3)cc1	EphB3(h)	kinase activity	–	1 µM	–	remaining activity	95%
CCCCCC/C(C)=N/Nc1ccc([N+](=O)[O-])cc1[N+](=O)[O-]	Lysine-specific demethylase 4A (KDM4A, Homo sapiens, UniProt O75164)	–	–	concentration not given	–	remaining activity	85%
NC/C(=C\F)COc1cccc(Cn2c(=S)[nH]c(=O)c3[nH]cnc32)c1	Lactoperoxidase (LPO, Bos taurus, UniProt P80025)	H2O2 electrode	–	2.5 µM	baseline: control	remaining activity	78% and 71.3% and 94.1%
O=C(Cc1ccc(-c2nn[nH]n2)nc1)Nc1cc(F)cc(Cl)c1O	malate dehydrogenase	enzyme activity, inhibitor	–	200 µM, pH 7.0, 1% DMSO, aggregation counter-screen	–	remaining activity	76%

SMILES	tested on	assay	system	conditions	how to read	measurement	result
COc1cc(F)ccc1-c1ncnc(Nc2cccc(C[S@](C)(=N)=O)c2)n1	PDGFRA	kinase activity	–	10 µM, added: 10 µM ATP	–	remaining activity	35%
COc1cc(-c2cncc3c2CN(C)Cc2cc(N4CCNCC4)ccc2-3)cc(OC)c1OC	STK25	kinase activity	–	1 µM, human enzyme, added: ATP 10 µM	baseline: DMSO control	remaining activity	103%
CC#CC(=O)N1CCC[C@H]1c1nc(-c2ccc(C(=O)Nc3ccccn3)cc2)c2c(N)nccn12	STK25	kinase activity, inhibitor, HotSpot radiometric	–	100 nM, added: ATP 10 µM	–	remaining activity	99.35 ± 0.5%
Cc1cccc(C)c1C(=O)OCC(=O)[C@H](CCCCN)NC(=O)[C@H](CCCNC(=N)N)NC(=O)OCc1ccccc1	Dipeptidyl peptidase 1 (Ctsc, Mus musculus, UniProt P97821)	inhibitor	–	0.1 µM, room temperature, added: AMC substrate	–	remaining activity	95%
C=CC(=O)N1CCC[C@@H](n2nc(-c3ccc(Oc4ccccc4)cc3)c3c(N)ncnc32)C1	TEC	kinase activity, inhibitor, HotSpot radiometric	–	100 nM, added: ATP 10 µM	–	remaining activity	3 ± 0.4%
COc1cc(Nc2ncc3c(n2)-c2ccc(Cl)cc2C(c2c(F)cccc2OC)=NC3)ccc1C(=O)O	SRC	kinase activity	–	1 µM	–	remaining activity	26%
O=S(=O)(Nc1c(CO)ccc(Cl)c1Cl)c1cccc(Cl)c1O	malate dehydrogenase	enzyme activity, inhibitor	–	200 µM, pH 7.0, 1% DMSO, aggregation counter-screen	–	remaining activity	81%
C[C@H]1[C@H](OC(=O)CCC(=O)O)O[C@@H]2O[C@@]3(C)CC[C@H]4[C@H](C)CC[C@@H]1[C@@]24OO3	Non-structural polyprotein pORF1, RNA-dependent RNA polymerase (Hepatitis E virus genotype 1, UniProt P33424)	polymerase activity, inhibitor, colorimetric	–	78 µM	baseline: untreated	remaining activity	59.5%
CNC(=O)COc1ccc(NS(=O)(=O)c2cc(Cl)cc(Cl)c2O)cc1	malate dehydrogenase	enzyme activity, inhibitor	–	200 µM, pH 7.0, 1% DMSO, aggregation counter-screen	–	remaining activity	98%
CN(C(=O)n1cnc(-c2ccc[n+]([O-])c2)c1)C1CCCCC1	Fatty-acid amide hydrolase 1 (Faah, Rattus norvegicus, UniProt P97612)	–	rat, brain	0.1 mg/kg, 6 days	baseline: control	remaining activity	73%
O=S(=O)(NC1(c2ccc3c(c2)OCO3)CC1)c1cccc(Cl)c1O	malate dehydrogenase	enzyme activity, inhibitor	–	200 µM, pH 7.0, 1% DMSO, aggregation counter-screen	–	remaining activity	125%
COc1cc(N2CCN(C)CC2)ccc1Nc1nc(N)n(C(=S)NCc2c(Cl)cccc2Cl)n1	Hepatocyte growth factor receptor (MET, Homo sapiens, UniProt P08581)	enzyme activity	–	10 µM	baseline: control	remaining activity	2.9%
C=CC[C@@H]1c2ccc(OC)c(OC)c2CN2CCc3cc4c(cc3[C@H]12)OCO4	P2X purinoceptor 7 (P2rx7, Mus musculus, UniProt Q9Z1M0, A312V)	ATP-evoked current, inhibitor, whole-cell patch clamp	–	30 µM, A312V variant	–	remaining activity	20.4%
Cc1cc(NC(=O)c2cccc(NC(=O)/C=C/CN(C)C)c2)ccc1Nc1nccc(-c2cccnc2)n1	Mitogen-activated protein kinase 8 (MAPK8, Homo sapiens, UniProt P45983)	enzyme activity, inhibitor	–	0.006774 µM, 6 h, unit not given, added: GSH 10 mM pre-incubation	baseline: vehicle	remaining activity	1
O=C(Nc1ccc(NS(=O)(=O)c2cccc(Cl)c2O)cn1)C1CC1	malate dehydrogenase	enzyme activity, inhibitor	–	200 µM, pH 7.0, 1% DMSO, aggregation counter-screen	–	remaining activity	90%
O=C1NC(=O)/C(=C/c2ccc(-c3ccc(F)cc3O)o2)S1	SRSF protein kinase 1 (SRPK1, Homo sapiens, UniProt Q96SB4)	enzyme activity	–	10 µM	–	remaining activity	39%
C=CC(=O)N1CCC[C@@H](n2nc(-c3ccc(Oc4ccccc4)cc3)c3c(N)ncnc32)C1	PDGFRA	–	–	0.1 µM	–	remaining activity	515%

Repeated from above:
SMILES	tested on	assay	system	conditions	how to read	measurement	result
COc1cc(Nc2ncc3c(n2)-c2ccc(Cl)cc2C(c2c(F)cccc2OC)=NC3)ccc1C(=O)O	SRC	kinase activity	–	1 µM	–	remaining activity	26%
O=C(Nc1ccc(NS(=O)(=O)c2cccc(Cl)c2O)cn1)C1CC1	malate dehydrogenase	enzyme activity, inhibitor	–	200 µM, pH 7.0, 1% DMSO, aggregation counter-screen	–	remaining activity	90%
C=CC[C@@H]1c2ccc(OC)c(OC)c2CN2CCc3cc4c(cc3[C@H]12)OCO4	P2X purinoceptor 7 (P2rx7, Mus musculus, UniProt Q9Z1M0, A312V)	ATP-evoked current, inhibitor, whole-cell patch clamp	–	30 µM, A312V variant	–	remaining activity	20.4%
